Experimental data from different studies.
Each line is one published result; not all experiments were run side by side. ± marks the error that the study gave.
Oprd1: Delta-type opioid receptor (Oprd1, Rattus norvegicus, UniProt P33533)
Chain of UniProt P33533 (whole entry, looked up): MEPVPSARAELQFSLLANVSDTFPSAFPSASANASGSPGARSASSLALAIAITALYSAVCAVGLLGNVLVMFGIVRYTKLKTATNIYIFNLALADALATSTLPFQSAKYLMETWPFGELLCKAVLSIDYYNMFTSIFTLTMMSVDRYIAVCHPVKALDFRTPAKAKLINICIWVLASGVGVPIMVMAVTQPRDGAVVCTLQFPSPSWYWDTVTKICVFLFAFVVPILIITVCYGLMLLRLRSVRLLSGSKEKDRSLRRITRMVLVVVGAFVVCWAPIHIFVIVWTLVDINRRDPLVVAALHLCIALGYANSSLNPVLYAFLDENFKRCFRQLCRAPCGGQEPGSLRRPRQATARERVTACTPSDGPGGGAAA
Chain of UniProt Q9NSD7 (whole entry, looked up): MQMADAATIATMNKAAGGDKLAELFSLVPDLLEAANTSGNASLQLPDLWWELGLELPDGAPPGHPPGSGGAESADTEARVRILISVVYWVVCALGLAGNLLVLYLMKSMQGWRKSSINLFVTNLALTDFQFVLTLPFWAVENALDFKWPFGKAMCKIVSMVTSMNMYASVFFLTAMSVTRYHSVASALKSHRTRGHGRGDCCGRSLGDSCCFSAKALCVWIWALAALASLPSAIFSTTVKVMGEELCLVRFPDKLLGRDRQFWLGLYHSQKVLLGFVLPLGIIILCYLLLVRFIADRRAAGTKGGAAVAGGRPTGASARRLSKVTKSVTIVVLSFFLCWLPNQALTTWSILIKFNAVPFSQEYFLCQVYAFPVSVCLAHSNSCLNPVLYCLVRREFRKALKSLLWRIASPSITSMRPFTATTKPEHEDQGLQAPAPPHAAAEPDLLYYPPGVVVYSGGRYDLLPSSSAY
Chain of UniProt Q07812 (whole entry, looked up): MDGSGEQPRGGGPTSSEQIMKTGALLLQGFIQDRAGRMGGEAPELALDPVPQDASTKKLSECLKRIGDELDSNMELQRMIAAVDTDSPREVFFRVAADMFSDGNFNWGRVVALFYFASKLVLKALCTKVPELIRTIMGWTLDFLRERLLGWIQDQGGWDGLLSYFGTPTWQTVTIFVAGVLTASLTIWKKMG
Chain of UniProt P35348 (whole entry, looked up): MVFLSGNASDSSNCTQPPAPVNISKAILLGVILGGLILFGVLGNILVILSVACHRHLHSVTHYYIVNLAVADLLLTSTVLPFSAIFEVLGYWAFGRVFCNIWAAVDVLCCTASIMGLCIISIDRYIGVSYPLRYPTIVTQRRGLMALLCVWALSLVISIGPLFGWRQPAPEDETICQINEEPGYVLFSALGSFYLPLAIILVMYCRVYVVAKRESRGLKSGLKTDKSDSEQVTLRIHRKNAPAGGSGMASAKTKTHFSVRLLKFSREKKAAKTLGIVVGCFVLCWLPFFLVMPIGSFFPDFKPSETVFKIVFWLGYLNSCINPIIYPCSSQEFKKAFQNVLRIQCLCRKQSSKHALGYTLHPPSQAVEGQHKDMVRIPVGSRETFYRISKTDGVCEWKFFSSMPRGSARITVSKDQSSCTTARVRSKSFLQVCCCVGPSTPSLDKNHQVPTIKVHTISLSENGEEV
Chain of UniProt O15297 (whole entry, looked up): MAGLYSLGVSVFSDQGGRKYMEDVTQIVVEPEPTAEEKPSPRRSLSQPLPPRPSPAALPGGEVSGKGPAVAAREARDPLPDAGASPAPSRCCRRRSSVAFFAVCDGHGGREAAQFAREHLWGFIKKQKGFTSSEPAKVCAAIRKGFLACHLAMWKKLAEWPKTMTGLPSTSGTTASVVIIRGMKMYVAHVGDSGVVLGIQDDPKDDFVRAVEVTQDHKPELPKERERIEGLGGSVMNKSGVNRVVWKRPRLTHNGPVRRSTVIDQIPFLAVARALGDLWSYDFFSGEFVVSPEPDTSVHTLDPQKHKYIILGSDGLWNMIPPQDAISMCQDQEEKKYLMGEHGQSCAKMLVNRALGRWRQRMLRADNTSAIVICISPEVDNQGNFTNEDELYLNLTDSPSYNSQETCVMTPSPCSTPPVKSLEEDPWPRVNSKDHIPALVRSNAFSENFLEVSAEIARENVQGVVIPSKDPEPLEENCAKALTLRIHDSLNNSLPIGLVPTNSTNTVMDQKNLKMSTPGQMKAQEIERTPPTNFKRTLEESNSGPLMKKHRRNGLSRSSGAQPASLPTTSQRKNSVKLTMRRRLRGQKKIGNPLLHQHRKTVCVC
Chain of UniProt P50406 (whole entry, looked up): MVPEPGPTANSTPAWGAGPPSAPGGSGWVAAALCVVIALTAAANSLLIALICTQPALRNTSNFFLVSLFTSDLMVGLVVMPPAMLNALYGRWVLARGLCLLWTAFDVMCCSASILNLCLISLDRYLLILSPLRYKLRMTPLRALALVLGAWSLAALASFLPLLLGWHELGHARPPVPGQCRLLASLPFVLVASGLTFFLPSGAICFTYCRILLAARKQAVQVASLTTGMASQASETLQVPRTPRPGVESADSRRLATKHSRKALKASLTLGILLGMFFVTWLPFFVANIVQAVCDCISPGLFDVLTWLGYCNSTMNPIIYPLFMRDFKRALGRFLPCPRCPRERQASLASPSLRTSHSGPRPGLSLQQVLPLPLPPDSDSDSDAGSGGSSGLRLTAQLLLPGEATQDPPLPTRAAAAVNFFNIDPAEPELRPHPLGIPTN
Chain of UniProt P54760 (whole entry, looked up): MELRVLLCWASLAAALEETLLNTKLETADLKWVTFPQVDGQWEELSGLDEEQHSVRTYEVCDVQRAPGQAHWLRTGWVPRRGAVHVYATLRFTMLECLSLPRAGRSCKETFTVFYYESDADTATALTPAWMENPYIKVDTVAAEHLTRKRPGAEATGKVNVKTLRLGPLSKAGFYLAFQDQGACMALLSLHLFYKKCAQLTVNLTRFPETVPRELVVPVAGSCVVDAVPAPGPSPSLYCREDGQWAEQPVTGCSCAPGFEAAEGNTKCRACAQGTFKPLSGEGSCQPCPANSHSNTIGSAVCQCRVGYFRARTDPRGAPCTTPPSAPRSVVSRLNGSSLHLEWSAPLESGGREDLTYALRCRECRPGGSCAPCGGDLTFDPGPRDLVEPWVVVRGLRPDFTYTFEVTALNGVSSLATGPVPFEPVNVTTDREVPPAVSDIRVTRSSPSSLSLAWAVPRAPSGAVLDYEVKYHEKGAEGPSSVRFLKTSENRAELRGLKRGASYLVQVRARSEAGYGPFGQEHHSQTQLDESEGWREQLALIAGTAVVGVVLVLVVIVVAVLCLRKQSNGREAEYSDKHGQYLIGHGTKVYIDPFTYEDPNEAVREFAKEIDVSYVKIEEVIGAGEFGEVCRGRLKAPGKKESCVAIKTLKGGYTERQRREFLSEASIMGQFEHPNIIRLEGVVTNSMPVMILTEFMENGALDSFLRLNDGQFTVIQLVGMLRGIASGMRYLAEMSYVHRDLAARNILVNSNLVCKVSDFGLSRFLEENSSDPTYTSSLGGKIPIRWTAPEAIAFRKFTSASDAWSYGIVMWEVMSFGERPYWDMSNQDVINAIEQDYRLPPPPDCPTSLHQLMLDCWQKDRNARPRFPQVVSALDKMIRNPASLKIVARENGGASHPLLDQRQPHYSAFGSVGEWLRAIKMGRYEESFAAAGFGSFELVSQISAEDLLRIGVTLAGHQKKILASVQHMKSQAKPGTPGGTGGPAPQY
Chain of UniProt Q9GZQ6 (whole entry, looked up): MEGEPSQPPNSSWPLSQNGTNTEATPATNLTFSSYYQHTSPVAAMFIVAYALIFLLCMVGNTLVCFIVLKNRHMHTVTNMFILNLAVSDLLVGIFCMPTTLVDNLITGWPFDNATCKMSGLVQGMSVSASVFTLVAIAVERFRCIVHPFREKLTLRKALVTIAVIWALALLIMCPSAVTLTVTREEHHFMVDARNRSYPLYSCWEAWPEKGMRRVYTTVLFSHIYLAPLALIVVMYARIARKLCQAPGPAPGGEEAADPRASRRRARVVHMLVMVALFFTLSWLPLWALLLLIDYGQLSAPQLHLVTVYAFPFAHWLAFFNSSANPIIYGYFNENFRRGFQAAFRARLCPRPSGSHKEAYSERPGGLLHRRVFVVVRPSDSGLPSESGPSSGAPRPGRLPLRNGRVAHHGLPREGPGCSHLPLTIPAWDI
Chain of UniProt Q96NY8 (whole entry, looked up): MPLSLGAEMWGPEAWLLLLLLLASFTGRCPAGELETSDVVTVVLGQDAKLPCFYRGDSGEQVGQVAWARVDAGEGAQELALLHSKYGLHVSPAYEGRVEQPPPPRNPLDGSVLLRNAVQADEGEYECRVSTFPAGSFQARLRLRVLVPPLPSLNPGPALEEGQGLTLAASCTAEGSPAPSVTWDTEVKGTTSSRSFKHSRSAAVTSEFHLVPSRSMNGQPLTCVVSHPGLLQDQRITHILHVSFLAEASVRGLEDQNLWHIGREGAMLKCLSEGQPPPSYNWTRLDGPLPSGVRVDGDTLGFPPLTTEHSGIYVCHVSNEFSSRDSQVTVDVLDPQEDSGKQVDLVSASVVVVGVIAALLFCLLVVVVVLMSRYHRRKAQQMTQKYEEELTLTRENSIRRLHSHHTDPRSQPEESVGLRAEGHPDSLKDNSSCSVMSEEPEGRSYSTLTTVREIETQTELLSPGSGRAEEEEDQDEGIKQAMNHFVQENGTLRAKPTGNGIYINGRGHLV
Chain of UniProt P14416 (whole entry, looked up): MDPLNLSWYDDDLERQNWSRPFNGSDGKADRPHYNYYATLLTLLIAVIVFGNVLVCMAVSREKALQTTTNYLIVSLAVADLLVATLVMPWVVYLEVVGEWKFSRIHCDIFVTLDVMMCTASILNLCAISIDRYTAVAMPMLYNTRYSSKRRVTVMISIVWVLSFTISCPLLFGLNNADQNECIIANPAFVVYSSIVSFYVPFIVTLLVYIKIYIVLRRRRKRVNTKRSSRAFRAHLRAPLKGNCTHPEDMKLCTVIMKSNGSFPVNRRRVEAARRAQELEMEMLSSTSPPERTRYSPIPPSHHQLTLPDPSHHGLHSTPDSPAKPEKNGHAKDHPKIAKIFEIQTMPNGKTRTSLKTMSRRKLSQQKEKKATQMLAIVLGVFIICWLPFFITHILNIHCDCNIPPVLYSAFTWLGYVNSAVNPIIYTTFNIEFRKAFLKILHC

With `C1CN2CN1CN1CCN(C1)C2` the Ki was 57.2 nM (Apoptosis regulator BAX (BAX, Homo sapiens, UniProt Q07812); ligand displacement, FP).
For `Cc1cc(O)cc(C)c1CC(N)C(=O)NC1CCNc2c1cc(Cc1ccccc1)cc2C(F)(F)F` (stereo not drawn), the Ki was 2.2 nM (Oprd1; ligand displacement, radioligand; cell membranes).
The Ki of `Cc1cc(O)cc(C)c1CC(N)C(=O)NC1CCNc2ccc(CN3CCc4ccccc4C3)cc21` (stereo not drawn) is reported as 3.1 nM (Oprd1; ligand displacement, radioligand; cell membranes).
`CNC(=O)C1CCN(c2ccccc2NC(=O)c2ccc(-c3cc(O)ccc3C)c(C)n2)CC1` gave a Ki of 0.3 nM (Ephrin type-B receptor 4 (EPHB4, Homo sapiens, UniProt P54760); cell-free assay, TR-FRET).
With `[2H]C([2H])(C)N1CCN(C2=Nc3cc(Cl)ccc3Nc3ccccc32)CC1` the Ki was 67 nM (Alpha-1A adrenergic receptor (ADRA1A, Homo sapiens, UniProt P35348); ligand displacement, radioligand).
For `CN1CCN(c2cn(Cc3ccccc3)c3ccccc23)CC1`, the Ki was 18 nM (5-hydroxytryptamine receptor 6 (HTR6, Homo sapiens, UniProt P50406); ligand displacement, radioligand; cell membranes).
The Ki of `CC[C@H](C)[C@@H]1NC(=O)[C@H](CCOP(=O)(O)O)NC(=O)[C@H](Cc2ccccc2)NC(=O)CSC[C@@H](C(N)=O)NC(=O)[C@H](CC(=O)O)NC(=O)[C@H](CC(=O)O)NC(=O)[C@H](Cc2ccc(OP(=O)(O)O)cc2)NC1=O` is reported as 2900 ± 500 nM (Protein phosphatase 1D (PPM1D, Homo sapiens, UniProt O15297); phosphatase activity, inhibitor, malachite green; with: ATM pS1981 peptide).
With `N=C(N)Nc1ccc(CC(=O)NCC2(Nc3ccccc3)CCN(Cc3ccccc3)CC2)cc1` the Ki was 2350 nM (Neuropeptide FF receptor 1 (NPFFR1, Homo sapiens, UniProt Q9GZQ6); cell-free assay).
`CC[C@@H]1NC(=O)[C@H](CCCNC(=N)N)NC(=O)[C@H](NC(=O)C(C)C)CCNC(=O)c2cc(F)c(c(F)c2)N=Nc2c(F)cc(cc2F)C(=O)NCCNC(=O)[C@@H](c2ccccc2)NC1=O` gave a Ki of 8 nM (WD repeat-containing protein 5 (WDR5, Homo sapiens, UniProt P61964); ligand displacement, FP).
`CC[C@H](C)[C@H](NC(=O)[C@H](Cc1ccccc1)NC(=O)[C@H](CCC(=O)O)NC(=O)[C@H](CCCNC(=N)N)NC(=O)CNC(=O)[C@H](CO)NC(=O)[C@H](CC(C)C)NC(=O)[C@H](CCCNC(=N)N)NC(=O)[C@@H](NC(=O)CNC(=O)[C@H](Cc1ccc(O)cc1)NC(=O)[C@@H]1CCCN1C(=O)[C@H](C)NC(=O)[C@H](C)NC(=O)[C@@H](N)CCCNC(=N)N)C(C)C)C(=O)N[C@@H](CCCNC(=N)N)C(=O)N[C@@H](C)C(=O)N[C@@]1(C)CCCC=CCCC[C@@](C)(C(=O)NCC(=O)NCC(=O)N[C@@H](CO)C(=O)N[C@@H](CCCNC(=N)N)C(=O)N[C@@H](Cc2c[nH]c3ccccc23)C(=O)O)NC(=O)[C@H]([C@@H](C)O)NC(=O)[C@H](Cc2ccccc2)NC(=O)[C@H]([C@@H](C)CC)NC1=O` has a Ki of 955 nM (Relaxin-3 receptor 1 (RXFP3, Homo sapiens, UniProt Q9NSD7); ligand displacement).
For `CCCN1CCO[C@@H]2c3cc(O)ccc3OC[C@H]21`, the Ki was 18.8 ± 4.7 nM (D(2) dopamine receptor (DRD2, Homo sapiens, UniProt P14416)).
`CC(C)C[C@@H]1NC(=O)[C@H](Cc2ccc(O)cc2)NC(=O)[C@H](CCCNC(=N)N)NC(=O)[C@H](C(C)C)NC(=O)[C@@H]2CCCN2C(=O)[C@H](Cc2ccccc2)NC(=O)[C@H](C)NC(=O)[C@H](CC(N)=O)NC(=O)[C@H](Cc2ccc(OS(=O)(=O)F)cc2)NC(=O)[C@@H](Cc2ccccc2)NC(=O)CSC[C@@H](C(=O)NCCOCCOCC(=O)NCCOCCOCC(=O)N[C@@H](CCCCN=[N+]=[N-])C(N)=O)NC(=O)[C@H](Cc2c[nH]c3ccccc23)NC(=O)[C@H](CCCNC(=N)N)NC(=O)[C@H](CCCCN)NC1=O` has a Ki of 4940 nM (Nectin-4, extracellular domain (Homo sapiens, UniProt Q96NY8); covalent binder, SPR single-cycle kinetics, two-state model; PBS-T; 800 s contact, 200 s dissociation, 25 °C).
